Experimental data from different studies.
Lines come from different studies, so protocols differ.
Organism: Pseudomonas aeruginosa

CC(C)C[C@H](NC(=O)[C@H](CCCCN)NC(=O)[C@H](CC(C)C)NC(=O)[C@H](CCCCN)NC(=O)C1CCCC=CCCC(NC(=O)[C@H](CCCCN)NC(=O)[C@H](CC(C)C)NC(=O)[C@H](CCCCN)NC(=O)[C@@H](N)CC(C)C)C(=O)N[C@@H](CCCCN)C(=O)N2CCC[C@@H]2C(=O)NCC(=O)N[C@@H](CCCCN)C(=O)N1)C(N)=O (stereo partly shown) — MIC (broth microdilution; ATCC 9027, Mueller-Hinton broth; 18 h, 37 °C): 8 µM
O=C(c1ccccc1O)c1[nH]c(Cl)c(Cl)c1-n1c(C(=O)c2ccccc2O)cc(Cl)c1Cl — MIC (microbial growth; ATCC27853): > 64 µM
C#CCOc1ccc(CN[C@@]2(C)C[C@H](O[C@H]3[C@H](Oc4c5cc6cc4Oc4ccc(cc4Cl)[C@@H](O)[C@@H](NC(=O)[C@@H](CC(C)C)NC)C(=O)N[C@@H](CC(N)=O)C(=O)N[C@H]6C(=O)N[C@H]4C(=O)N[C@H](C(=O)N[C@H](C(=O)NCC(N)=O)c6cc(O)cc(O)c6-c6cc4ccc6O)[C@H](O)c4ccc(c(Cl)c4)O5)O[C@H](CO)[C@@H](O)[C@@H]3O)O[C@@H](C)[C@H]2O)cc1OC — MIC (broth microdilution; ATCC 25922, cation-adjusted Mueller-Hinton broth): 38 µM
CN[C@@H]1[C@H](O)[C@H](NC)[C@H]2O[C@]3(O)[C@H](O[C@@H]2[C@H]1O)O[C@H](C)C[C@H]3NC(=O)CNC(C)(C)C — MIC (microbial growth, broth dilution; PAO1): 200 µg/mL
CN[C@H](CC(C)C)C(=O)N[C@H]1C(=O)N[C@@H](CC(N)=O)C(=O)N[C@H]2C(=O)N[C@H]3C(=O)N[C@H](C(=O)N[C@H](C(=O)NCC(N)=O)c4cc(O)cc(O)c4-c4cc3ccc4O)[C@H](O)c3ccc(c(Cl)c3)Oc3cc2cc(c3O[C@@H]2O[C@H](CO)[C@@H](O)[C@H](O)[C@H]2O[C@H]2C[C@](C)(NCc3ccc(OCc4cn(CC(=O)N[C@H](C(=O)N[C@@H](CCN)C(=O)N[C@H]5CCNC(=O)[C@H]([C@@H](C)O)NC(=O)[C@H](CCN)NC(=O)[C@H](CCN)NC(=O)[C@H](CC(C)C)NC(=O)[C@@H](CC(C)C)NC(=O)[C@H](CCN)NC5=O)[C@@H](C)O)nn4)c(OC)c3)[C@H](O)[C@H](C)O2)Oc2ccc(cc2Cl)[C@H]1O — MIC (broth microdilution; ATCC 17978, cation-adjusted Mueller-Hinton broth): 48 µM
CC[C@H](C)[C@H](NC(=O)[C@@H](CCCNC(=N)N)NC(=O)[C@H](CCCNC(=N)N)NC(=O)CNC(=O)[C@H](Cc1c[nH]c2ccccc12)NC(=O)[C@H](CCCNC(=N)N)NC(=O)[C@@H]1CCCN1C(=O)[C@H](CCCNC(=N)N)NC(=O)[C@@H]1CCCN1C(=O)[C@H](CC(C)C)NC(=O)[C@H](Cc1ccc(O)cc1)NC(=O)[C@@H]1CCCN1C(=O)[C@@H]1CCCN1C(=O)[C@H](CCCCN)NC(=O)[C@H](CC(=O)O)NC(=O)[C@@H](N)C(C)C)C(=O)N[C@@H](Cc1ccc(O)cc1)C(=O)N[C@@H](CC(N)=O)C(=O)N[C@H](CCCNC(=N)N)C(N)=O — MIC (broth microdilution; DSM 1117; 18 h, 37 °C, 25% MHB2): 64 µg/mL
CCn1c(-c2ccc(F)cc2)c(-c2ccc(F)cc2)n(Cc2ccccc2)c1=[Se] — MIC (broth microdilution; carbapenem-resistant BAA-2108; 24 h): > 40 µM
CC[C@H](C)[C@H](NC(=O)[C@@H](CCCNC(=N)N)NC(=O)[C@H](CCCNC(=N)N)NC(=O)[C@@H]1CCCN1C(=O)[C@@H]1CCCN1C(=O)[C@H](CCCNC(=N)N)NC(=O)[C@@H]1CCCN1C(=O)[C@H](CCCNC(=N)N)NC(=O)[C@@H]1CCCN1C(=O)[C@H](CC(C)C)NC(=O)[C@H](Cc1ccc(O)cc1)NC(=O)[C@H](CCCNC(=N)N)NC(=O)[C@@H]1CCCN1C(=O)[C@H](CCCCN)NC(=O)[C@H](CC(=O)O)NC(=O)[C@@H](N)C(C)C)C(=O)N[C@@H](Cc1ccc(O)cc1)C(=O)N[C@@H](CC(N)=O)C(=O)N[C@H](CCCNC(=N)N)C(N)=O — MIC (broth microdilution; DSM 1117; 18 h, 37 °C, 25% MHB2): 64 µg/mL
CC(=O)N[C@H](Cc1ccc(C(F)(F)F)cc1)C(=O)N[C@@H](CCN)C(=O)N[C@H](C(=O)N[C@@H](CCN)C(=O)N[C@H]1CCNC(=O)[C@H]([C@@H](C)O)NC(=O)[C@H](CCN)NC(=O)[C@H](CCN)NC(=O)[C@H](CC(C)C)NC(=O)[C@@H](Cc2ccccc2)NC(=O)[C@H](CCN)NC1=O)[C@@H](C)O — MIC (broth microdilution; colistin-resistant isolates): 32 to 64 µg/mL
C#CCNC(=O)[C@H]1NC(=O)[C@H]2NC(=O)[C@H](NC(=O)[C@@H]3NC(=O)[C@H](CC(N)=O)NC(=O)[C@H](NC(=O)[C@@H](CC(C)C)NC)[C@H](O)c4ccc(c(Cl)c4)Oc4cc3cc(c4O[C@@H]3O[C@H](CO)[C@@H](O)[C@H](O)[C@H]3O[C@H]3C[C@](C)(N)[C@H](O)[C@H](C)O3)Oc3ccc(cc3Cl)[C@H]2O)c2ccc(O)c(c2)-c2c(O)cc(O)cc21 — MIC (broth microdilution; ATCC 27736, cation-adjusted Mueller-Hinton broth): > 86 µM
CC[C@H](C)[C@H](NC(=O)[C@H](Cc1c[nH]c2ccccc12)NC(=O)[C@H](CCCCN)NC(=O)[C@H](CC(C)C)NC(=O)[C@@H](NC(=O)[C@@H](NC(=O)CNC(=O)[C@H](CCCCN)NC(=O)[C@H](Cc1c[nH]cn1)NC(=O)[C@H](CCCCN)NC(=O)[C@H](Cc1c[nH]c2ccccc12)NC(=O)[C@H](C)NC(=O)[C@H](CC(C)C)NC(=O)[C@H](CO)NC(=O)[C@@H](NC(=O)[C@H](Cc1ccc(O)cc1)NC(=O)[C@H](CCCCN)NC(=O)[C@H](CCC(N)=O)NC(=O)CNC(=O)[C@H](CCCCN)NC(=O)[C@@H](NC(=O)[C@H](C)NC(=O)[C@H](CC(C)C)NC(=O)[C@H](Cc1ccccc1)NC(=O)[C@H](CCC(N)=O)NC(=O)[C@@H](NC(=O)[C@H](CC(C)C)NC(=O)[C@H](CCCCN)NC(=O)[C@H](CCSC)NC(=O)[C@H](Cc1ccccc1)NC(=O)[C@H](C)NC(=O)[C@H](C)NC(=O)[C@@H](N)CCSC)[C@@H](C)CC)[C@@H](C)O)C(C)C)[C@@H](C)O)[C@@H](C)CC)C(=O)N[C@@H](CC(N)=O)C(N)=O — MIC (broth microdilution; ATCC 27853; 24 h, 37 °C): 12 µg/mL
CC(=O)N[C@H](Cc1ccc(F)cc1)C(=O)N[C@@H](CCN)C(=O)N[C@H](C(=O)N[C@@H](CCN)C(=O)N[C@H]1CCNC(=O)[C@H]([C@@H](C)O)NC(=O)[C@H](CCN)NC(=O)[C@H](CCN)NC(=O)[C@H](CC(C)C)NC(=O)[C@@H](Cc2ccccc2)NC(=O)[C@H](CCN)NC1=O)[C@@H](C)O — MIC (broth microdilution; colistin-resistant isolates): > 64 µg/mL
CN[C@H](CC(C)C)C(=O)N[C@H]1C(=O)N[C@@H](CC(N)=O)C(=O)N[C@H]2C(=O)N[C@H]3C(=O)N[C@H](C(=O)N[C@H](C(=O)N[C@@H](CCCNC(=N)N)C(N)=O)c4cc(O)cc(O)c4-c4cc3ccc4O)[C@H](O)c3ccc(c(Cl)c3)Oc3cc2cc(c3O[C@@H]2O[C@H](CO)[C@@H](O)[C@H](O)[C@H]2O[C@H]2C[C@](C)(NCc3ccc(OCc4cn(CC(=O)N[C@H](C(=O)N[C@@H](CCN)C(=O)N[C@H]5CCNC(=O)[C@H]([C@@H](C)O)NC(=O)[C@H](CCN)NC(=O)[C@H](CCN)NC(=O)[C@H](CC(C)C)NC(=O)[C@@H](CC(C)C)NC(=O)[C@H](CCN)NC5=O)[C@@H](C)O)nn4)c(OC)c3)[C@H](O)[C@H](C)O2)Oc2ccc(cc2Cl)[C@H]1O — MIC (broth microdilution; ATCC 13883, cation-adjusted Mueller-Hinton broth): 11 µM
CC[C@H](C)[C@H](NC(=O)[C@H](CCCCN)NC(=O)[C@@H](NC(=O)[C@@H](NC(=O)[C@H](CC(C)C)NC(=O)[C@H](CCCNC(=N)N)NC(=O)[C@@H](NC(=O)[C@H](CC(C)C)NC(=O)[C@H](CCCNC(=N)N)NC(=O)CNC(=O)[C@H](Cc1ccccc1)NC(=O)[C@@H](N)CCCNC(=N)N)[C@@H](C)CC)[C@@H](C)CC)C(C)C)C(=O)N[C@@H](C)C(=O)N[C@@H](CCCNC(=N)N)C(=O)N[C@@H](CCCNC(=N)N)C(=O)N[C@@H](C)C(=O)N[C@@H](Cc1c[nH]cn1)C(=O)N[C@@H](CCCNC(=N)N)C(=O)N[C@@H](C)C(=O)N[C@@H](CCCNC(=N)N)C(=O)N[C@@H](CO)C(=O)N[C@@H](C)C(=O)N[C@H](C(=O)N[C@@H](CCCCN)C(=O)N[C@@H](C)C(=O)N[C@@H](C)C(=O)N[C@@H](CO)C(=O)N[C@@H](CC(N)=O)C(=O)N[C@H](C(=O)N[C@@H](C)C(=O)N[C@@H](C)C(=O)N[C@@H](CC(C)C)C(=O)N[C@@H](C)C(=O)N[C@@H](Cc1c[nH]cn1)C(=O)NCC(=O)N[C@@H](C)C(N)=O)C(C)C)C(C)C — MIC (bacterial growth, broth microdilution; cation-adjusted Mueller Hinton broth; 18 h, 37 °C): ≤ 0.064 µM
CC[C@H](C)[C@H](NC(=O)[C@@H](CCCNC(=N)N)NC(=O)[C@H](CCCNC(=N)N)NC(=O)[C@H](Cc1ccc(O)cc1)NC(=O)[C@H](Cc1c[nH]c2ccccc12)NC(=O)[C@H](CCCNC(=N)N)NC(=O)[C@@H]1CCCN1C(=O)[C@H](CCCNC(=N)N)NC(=O)[C@@H]1CCCN1C(=O)[C@H](CC(C)C)NC(=O)[C@H](Cc1ccc(O)cc1)NC(=O)[C@@H]1CCCN1C(=O)[C@@H]1CCCN1C(=O)[C@H](CCCCN)NC(=O)[C@H](CC(=O)O)NC(=O)[C@@H](N)C(C)C)C(=O)N[C@@H](Cc1ccc(O)cc1)C(=O)N[C@@H](CC(N)=O)C(=O)N[C@H](CCCNC(=N)N)C(N)=O — MIC (broth microdilution; DSM 1117; 18 h, 37 °C, 25% MHB2): 128 µg/mL
O=C(O)CN(CC(=O)O)CP(=O)(O)O — MIC (IMP-7 producer; 32 µg/mL, MIC of meropenem, added: meropenem): 16 µg/mL

Excerpt of the above:
CN[C@H](CC(C)C)C(=O)N[C@H]1C(=O)N[C@@H](CC(N)=O)C(=O)N[C@H]2C(=O)N[C@H]3C(=O)N[C@H](C(=O)N[C@H](C(=O)N[C@@H](CCCNC(=N)N)C(N)=O)c4cc(O)cc(O)c4-c4cc3ccc4O)[C@H](O)c3ccc(c(Cl)c3)Oc3cc2cc(c3O[C@@H]2O[C@H](CO)[C@@H](O)[C@H](O)[C@H]2O[C@H]2C[C@](C)(NCc3ccc(OCc4cn(CC(=O)N[C@H](C(=O)N[C@@H](CCN)C(=O)N[C@H]5CCNC(=O)[C@H]([C@@H](C)O)NC(=O)[C@H](CCN)NC(=O)[C@H](CCN)NC(=O)[C@H](CC(C)C)NC(=O)[C@@H](CC(C)C)NC(=O)[C@H](CCN)NC5=O)[C@@H](C)O)nn4)c(OC)c3)[C@H](O)[C@H](C)O2)Oc2ccc(cc2Cl)[C@H]1O — MIC (broth microdilution; ATCC 13883, cation-adjusted Mueller-Hinton broth): 11 µM
CC[C@H](C)[C@H](NC(=O)[C@H](CCCCN)NC(=O)[C@@H](NC(=O)[C@@H](NC(=O)[C@H](CC(C)C)NC(=O)[C@H](CCCNC(=N)N)NC(=O)[C@@H](NC(=O)[C@H](CC(C)C)NC(=O)[C@H](CCCNC(=N)N)NC(=O)CNC(=O)[C@H](Cc1ccccc1)NC(=O)[C@@H](N)CCCNC(=N)N)[C@@H](C)CC)[C@@H](C)CC)C(C)C)C(=O)N[C@@H](C)C(=O)N[C@@H](CCCNC(=N)N)C(=O)N[C@@H](CCCNC(=N)N)C(=O)N[C@@H](C)C(=O)N[C@@H](Cc1c[nH]cn1)C(=O)N[C@@H](CCCNC(=N)N)C(=O)N[C@@H](C)C(=O)N[C@@H](CCCNC(=N)N)C(=O)N[C@@H](CO)C(=O)N[C@@H](C)C(=O)N[C@H](C(=O)N[C@@H](CCCCN)C(=O)N[C@@H](C)C(=O)N[C@@H](C)C(=O)N[C@@H](CO)C(=O)N[C@@H](CC(N)=O)C(=O)N[C@H](C(=O)N[C@@H](C)C(=O)N[C@@H](C)C(=O)N[C@@H](CC(C)C)C(=O)N[C@@H](C)C(=O)N[C@@H](Cc1c[nH]cn1)C(=O)NCC(=O)N[C@@H](C)C(N)=O)C(C)C)C(C)C — MIC (bacterial growth, broth microdilution; cation-adjusted Mueller Hinton broth; 18 h, 37 °C): ≤ 0.064 µM
